Experimental data pooled from the literature.
Each numbered part is a random draw from the data of one study; scales do not carry over between parts. Values joined by “and” are separate records of one study, mostly repeats; a detail may differ.
Chain of UniProt Q13163 (whole entry, looked up): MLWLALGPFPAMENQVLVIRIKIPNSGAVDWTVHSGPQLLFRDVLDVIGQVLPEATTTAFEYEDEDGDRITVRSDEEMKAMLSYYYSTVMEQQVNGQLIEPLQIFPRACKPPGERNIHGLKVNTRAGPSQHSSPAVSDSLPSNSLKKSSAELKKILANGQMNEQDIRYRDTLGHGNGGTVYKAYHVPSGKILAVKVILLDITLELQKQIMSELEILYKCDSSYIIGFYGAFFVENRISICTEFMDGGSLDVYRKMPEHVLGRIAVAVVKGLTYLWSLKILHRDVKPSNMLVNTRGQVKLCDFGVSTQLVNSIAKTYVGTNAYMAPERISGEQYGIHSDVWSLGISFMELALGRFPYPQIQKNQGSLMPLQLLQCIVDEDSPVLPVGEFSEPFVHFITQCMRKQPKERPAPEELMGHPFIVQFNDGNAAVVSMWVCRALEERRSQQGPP
Chain of UniProt O75582 (whole entry, looked up): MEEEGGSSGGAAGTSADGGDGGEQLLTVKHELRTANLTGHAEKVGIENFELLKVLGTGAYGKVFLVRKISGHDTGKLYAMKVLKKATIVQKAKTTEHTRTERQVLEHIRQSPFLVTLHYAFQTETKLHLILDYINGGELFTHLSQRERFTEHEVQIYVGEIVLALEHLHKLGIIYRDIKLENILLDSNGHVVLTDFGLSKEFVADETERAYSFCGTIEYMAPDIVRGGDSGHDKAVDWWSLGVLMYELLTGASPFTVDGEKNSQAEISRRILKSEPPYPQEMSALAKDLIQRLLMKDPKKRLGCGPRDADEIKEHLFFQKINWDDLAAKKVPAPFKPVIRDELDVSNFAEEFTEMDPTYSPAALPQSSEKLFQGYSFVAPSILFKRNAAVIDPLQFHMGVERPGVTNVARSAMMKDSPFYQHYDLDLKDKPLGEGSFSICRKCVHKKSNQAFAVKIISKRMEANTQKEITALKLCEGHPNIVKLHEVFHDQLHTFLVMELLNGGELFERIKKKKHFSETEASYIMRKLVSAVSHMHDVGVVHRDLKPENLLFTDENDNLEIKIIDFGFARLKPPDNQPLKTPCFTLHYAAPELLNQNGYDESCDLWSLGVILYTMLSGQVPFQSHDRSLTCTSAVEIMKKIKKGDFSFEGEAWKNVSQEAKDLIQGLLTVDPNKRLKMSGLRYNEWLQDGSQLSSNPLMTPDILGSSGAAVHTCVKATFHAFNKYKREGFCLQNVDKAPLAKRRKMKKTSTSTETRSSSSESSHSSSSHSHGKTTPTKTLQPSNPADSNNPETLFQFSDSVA
Chain of UniProt Q9NY57 (whole entry, looked up): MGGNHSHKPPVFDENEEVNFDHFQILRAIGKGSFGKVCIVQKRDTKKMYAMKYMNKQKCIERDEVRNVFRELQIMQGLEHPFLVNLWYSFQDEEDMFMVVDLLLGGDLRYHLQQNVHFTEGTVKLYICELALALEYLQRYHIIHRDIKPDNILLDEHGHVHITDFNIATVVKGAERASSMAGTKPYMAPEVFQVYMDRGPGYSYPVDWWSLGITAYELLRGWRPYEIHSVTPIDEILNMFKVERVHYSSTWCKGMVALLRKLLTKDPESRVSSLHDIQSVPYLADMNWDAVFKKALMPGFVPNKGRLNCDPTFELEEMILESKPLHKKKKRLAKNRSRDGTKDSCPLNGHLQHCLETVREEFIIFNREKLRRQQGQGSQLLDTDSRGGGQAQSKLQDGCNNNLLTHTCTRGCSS
Chain of UniProt O75676 (whole entry, looked up): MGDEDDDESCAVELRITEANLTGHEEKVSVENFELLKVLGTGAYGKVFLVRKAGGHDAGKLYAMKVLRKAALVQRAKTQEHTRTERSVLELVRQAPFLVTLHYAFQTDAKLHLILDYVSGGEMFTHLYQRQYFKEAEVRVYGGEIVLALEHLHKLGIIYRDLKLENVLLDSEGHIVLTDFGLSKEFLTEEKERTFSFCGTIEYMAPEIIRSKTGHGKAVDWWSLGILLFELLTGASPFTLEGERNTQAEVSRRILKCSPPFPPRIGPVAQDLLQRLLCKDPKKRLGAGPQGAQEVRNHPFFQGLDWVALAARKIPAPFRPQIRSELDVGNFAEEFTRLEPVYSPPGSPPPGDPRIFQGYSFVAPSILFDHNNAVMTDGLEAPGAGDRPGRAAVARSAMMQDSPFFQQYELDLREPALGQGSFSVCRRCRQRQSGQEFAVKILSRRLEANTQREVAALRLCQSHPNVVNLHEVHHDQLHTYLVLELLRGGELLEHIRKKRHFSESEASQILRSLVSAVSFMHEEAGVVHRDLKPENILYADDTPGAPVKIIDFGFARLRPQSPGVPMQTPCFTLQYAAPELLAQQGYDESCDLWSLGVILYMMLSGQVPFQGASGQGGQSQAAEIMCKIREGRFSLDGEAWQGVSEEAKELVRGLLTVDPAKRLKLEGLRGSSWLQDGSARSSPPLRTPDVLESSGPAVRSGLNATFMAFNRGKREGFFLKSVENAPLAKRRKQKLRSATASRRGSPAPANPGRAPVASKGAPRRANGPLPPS

Study 1 — read-out: enzyme activity; mode: inhibitor; concentration: 77 µM; relative to: untreated
Target: DNA polymerase theta, ATPase domain (POLQ, Homo sapiens, UniProt O75417)
Chain of UniProt O75417 (whole entry, unmodified, looked up): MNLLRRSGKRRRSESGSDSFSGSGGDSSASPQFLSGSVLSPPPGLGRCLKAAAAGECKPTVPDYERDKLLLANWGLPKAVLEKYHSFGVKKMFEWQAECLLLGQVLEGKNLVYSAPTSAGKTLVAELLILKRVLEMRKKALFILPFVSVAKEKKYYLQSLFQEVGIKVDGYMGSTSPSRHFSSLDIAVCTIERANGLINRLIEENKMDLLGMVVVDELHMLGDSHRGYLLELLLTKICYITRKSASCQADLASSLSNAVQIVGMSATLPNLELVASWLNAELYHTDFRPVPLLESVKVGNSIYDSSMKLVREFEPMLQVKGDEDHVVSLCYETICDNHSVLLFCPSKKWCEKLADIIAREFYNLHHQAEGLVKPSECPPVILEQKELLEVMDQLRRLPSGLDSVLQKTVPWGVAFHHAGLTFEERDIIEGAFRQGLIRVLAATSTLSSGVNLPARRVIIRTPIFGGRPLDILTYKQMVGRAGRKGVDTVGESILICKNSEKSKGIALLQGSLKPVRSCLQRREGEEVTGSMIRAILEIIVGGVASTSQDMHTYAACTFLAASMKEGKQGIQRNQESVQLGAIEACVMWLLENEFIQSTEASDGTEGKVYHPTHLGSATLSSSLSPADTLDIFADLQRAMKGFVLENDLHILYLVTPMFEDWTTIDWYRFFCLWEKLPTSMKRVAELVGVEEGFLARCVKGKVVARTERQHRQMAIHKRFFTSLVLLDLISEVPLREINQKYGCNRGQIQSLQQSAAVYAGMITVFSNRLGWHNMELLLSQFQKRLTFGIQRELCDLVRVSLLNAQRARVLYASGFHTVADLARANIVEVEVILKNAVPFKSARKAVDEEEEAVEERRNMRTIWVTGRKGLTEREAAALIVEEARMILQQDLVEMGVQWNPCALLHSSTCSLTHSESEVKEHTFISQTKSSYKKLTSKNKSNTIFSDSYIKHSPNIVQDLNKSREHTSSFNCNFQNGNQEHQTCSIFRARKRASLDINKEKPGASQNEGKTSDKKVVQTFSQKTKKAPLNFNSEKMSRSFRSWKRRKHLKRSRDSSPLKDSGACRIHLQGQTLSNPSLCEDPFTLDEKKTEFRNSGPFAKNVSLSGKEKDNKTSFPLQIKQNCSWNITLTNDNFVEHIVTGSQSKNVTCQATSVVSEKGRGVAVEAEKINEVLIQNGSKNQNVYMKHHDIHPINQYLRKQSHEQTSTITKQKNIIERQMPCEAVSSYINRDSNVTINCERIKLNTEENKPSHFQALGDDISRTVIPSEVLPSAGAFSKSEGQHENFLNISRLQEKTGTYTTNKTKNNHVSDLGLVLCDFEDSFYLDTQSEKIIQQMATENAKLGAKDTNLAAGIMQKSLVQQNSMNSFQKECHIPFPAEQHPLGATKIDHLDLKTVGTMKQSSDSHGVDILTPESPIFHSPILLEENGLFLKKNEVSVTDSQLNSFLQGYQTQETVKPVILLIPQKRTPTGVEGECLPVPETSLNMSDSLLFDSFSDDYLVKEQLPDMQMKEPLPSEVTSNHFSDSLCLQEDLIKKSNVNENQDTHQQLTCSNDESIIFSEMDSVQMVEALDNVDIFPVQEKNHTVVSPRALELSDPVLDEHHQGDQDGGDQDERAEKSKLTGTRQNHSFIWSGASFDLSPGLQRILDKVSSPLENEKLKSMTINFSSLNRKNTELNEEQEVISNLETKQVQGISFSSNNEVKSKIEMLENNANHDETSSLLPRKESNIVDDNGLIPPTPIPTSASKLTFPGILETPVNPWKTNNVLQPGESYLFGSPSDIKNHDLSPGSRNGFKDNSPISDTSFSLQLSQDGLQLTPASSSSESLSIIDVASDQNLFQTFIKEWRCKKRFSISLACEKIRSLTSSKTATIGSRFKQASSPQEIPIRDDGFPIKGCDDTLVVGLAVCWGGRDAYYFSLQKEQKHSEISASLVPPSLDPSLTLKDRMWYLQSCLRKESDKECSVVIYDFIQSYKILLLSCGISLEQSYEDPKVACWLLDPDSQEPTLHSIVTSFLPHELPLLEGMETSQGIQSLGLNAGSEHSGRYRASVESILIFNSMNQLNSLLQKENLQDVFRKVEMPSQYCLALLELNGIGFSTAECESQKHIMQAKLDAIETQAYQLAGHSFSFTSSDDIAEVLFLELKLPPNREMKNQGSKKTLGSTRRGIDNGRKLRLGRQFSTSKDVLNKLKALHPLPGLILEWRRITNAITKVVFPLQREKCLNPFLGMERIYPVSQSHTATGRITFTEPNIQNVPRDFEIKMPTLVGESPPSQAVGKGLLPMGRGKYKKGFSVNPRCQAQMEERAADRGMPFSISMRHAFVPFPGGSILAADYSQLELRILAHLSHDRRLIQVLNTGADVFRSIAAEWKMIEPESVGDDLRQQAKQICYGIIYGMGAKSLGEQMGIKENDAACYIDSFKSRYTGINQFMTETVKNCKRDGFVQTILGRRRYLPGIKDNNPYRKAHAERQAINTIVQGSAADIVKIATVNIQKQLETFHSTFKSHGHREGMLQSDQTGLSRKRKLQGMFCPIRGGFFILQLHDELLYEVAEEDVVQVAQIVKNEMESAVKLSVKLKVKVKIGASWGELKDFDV
`c1ccc2nc(C3=NCCN3)ccc2c1` gave a remaining activity of 104%.
`CC[N+](CC)(CC)CC` has a remaining activity of 98.7%.
`c1ccc(CN(Cc2ncc[nH]2)c2ccccc2)cc1` has a remaining activity of 97.2%.
With `COc1ccc(C[C@@H]2c3cc(OC)c(OC)cc3CC[N@+]2(C)CCC(=O)OCCCCCOC(=O)CC[N@@+]2(C)CCc3cc(OC)c(OC)cc3[C@H]2Cc2ccc(OC)c(OC)c2)cc1OC` the remaining activity was 95.5% and 106%.
`CC(C)[C@H]1CC[C@H](C(=O)N[C@H](Cc2ccccc2)C(=O)O)CC1` has a remaining activity of 85.6%.
With `C=CCOC(Cn1ccnc1)c1ccc(Cl)cc1Cl` (stereo not shown) the remaining activity was 80.7%.
The remaining activity of `OC[C@H]1O[C@@H](n2cnc3c(NC4CCCC4)ncnc32)[C@H](O)[C@@H]1O` is reported as 99.3%.
For `NCCCCCCCCCCN`, the remaining activity was 104%.
`N#CC(c1ccc(Cl)cc1)c1c(Cl)cc(-n2ncc(=O)[nH]c2=O)cc1Cl` (stereo not shown) has a remaining activity of 80.6%.
`COc1cc(CNC(=O)CCCCCCC(C)C)ccc1O` gave a remaining activity of 96.7%.
For `OC[C@H]1O[C@@H](n2cnc3c(NC4CCCCC4)ncnc32)[C@H](O)[C@@H]1O`, the remaining activity was 108%.

Study 2 — read-out: cell-free assay; technique: competition with immobilised ligand; concentration: 1 µM
Structure (SMILES): COc1ccc2c(c1)O[C@@H](c1ccc(OC)c(OC)c1)C[C@H]2NC(=O)C1(c2ccc3c(c2)OC(F)(F)O3)CC1
For Epidermal growth factor receptor (EGFR, Homo sapiens, UniProt P00533, L861Q): remaining binding read 100%.
Ribosomal protein S6 kinase alpha-5, N-terminal kinase domain (RPS6KA5, Homo sapiens, UniProt O75582) — remaining binding: 100%.
It gave 68% for remaining binding (Epidermal growth factor receptor (EGFR, Homo sapiens, UniProt P00533, del746-750)).
The remaining binding was 67% (Dual specificity mitogen-activated protein kinase kinase 5 (MAP2K5, Homo sapiens, UniProt Q13163)).
It gave 82% for remaining binding (Ephrin type-A receptor 8 (EPHA8, Homo sapiens, UniProt P29322)).
Discoidin domain-containing receptor 2 (DDR2, Homo sapiens, UniProt Q16832) — remaining binding: 98%.
Serine/threonine-protein kinase 26 (STK26, Homo sapiens, UniProt Q9P289) — remaining binding: 75%.
Tyrosine-protein kinase ABL1, non-phosphorylated (ABL1, Homo sapiens, UniProt P00519, T315I) — remaining binding: 75%.
For Serine/threonine-protein kinase PLK1 (PLK1, Homo sapiens, UniProt P53350): remaining binding read 70%.
It gave 100% for remaining binding (Protein-tyrosine kinase 6 (PTK6, Homo sapiens, UniProt Q13882)).
Inhibitor of nuclear factor kappa-B kinase subunit alpha (CHUK, Homo sapiens, UniProt O15111) — remaining binding: 95%.
For Serine/threonine-protein kinase PLK4 (PLK4, Homo sapiens, UniProt O00444): remaining binding read 84%.
Epidermal growth factor receptor (EGFR, Homo sapiens, UniProt P00533, T790M) — remaining binding: 82%.
Ribosomal protein S6 kinase alpha-3, N-terminal kinase domain (RPS6KA3, Homo sapiens, UniProt P51812) — remaining binding: 81%.
The remaining binding was 100% (Cyclin-dependent kinase 18 (CDK18, Homo sapiens, UniProt Q07002)).

Study 3 — concentration: 1 µM
Compound: COc1ccc2[nH]c3c4[nH]c5ccc(OC)cc5c4c4c(c3c2c1)C(=O)NC4=O
Tyrosine-protein kinase ABL1 (ABL1, Homo sapiens, UniProt P00519, F317I); competitive binding panel; relative to: vehicle — remaining binding: 87%.
It gave 100% for remaining binding (Casein kinase I isoform gamma-3 (CSNK1G3, Homo sapiens, UniProt Q9Y6M4); competitive binding panel; relative to: vehicle).
It gave 82% for remaining binding (Cyclin-dependent kinase 4 (CDK4, Homo sapiens, UniProt P11802); competitive binding scan; with: cyclin D1).
For Tyrosine-protein kinase JAK1 (JAK1, Homo sapiens, UniProt P23458); competitive binding panel; JH1 catalytic domain; relative to: vehicle: remaining binding read 100%.
For Casein kinase II subunit alpha (CSNK2A1, Homo sapiens, UniProt P68400); competitive binding panel; relative to: vehicle: remaining binding read 61%.
For Tyrosine-protein kinase ABL1 (ABL1, Homo sapiens, UniProt P00519, E255K); competitive binding panel; relative to: vehicle: remaining binding read 64%.
It gave 97% for remaining binding (Serine/threonine-protein kinase 32B (STK32B, Homo sapiens, UniProt Q9NY57); competitive binding panel, item: YANK2; relative to: vehicle).
The remaining binding was 56% (SNF-related serine/threonine-protein kinase (SNRK, Homo sapiens, UniProt Q9NRH2); competitive binding panel; relative to: vehicle).

Study 4 — mode: inhibitor; concentration: 1 µM
Structure (SMILES): CC#CC(=O)N1CCC[C@H]1c1nc(-c2ccc(C(=O)Nc3ccccn3)cc2)c2c(N)nccn12
For Serine/threonine-protein kinase PAK 5 (PAK5, Homo sapiens, UniProt Q9P286); enzyme activity: inhibition read 8%.
The inhibition was 12% (Serine/threonine-protein kinase 32C (STK32C, Homo sapiens, UniProt Q86UX6); enzyme activity).
The inhibition was 0% (Ribosomal protein S6 kinase alpha-4, N-terminal kinase domain (RPS6KA4, Homo sapiens, UniProt O75676)).
It gave 26% for inhibition (RAF proto-oncogene serine/threonine-protein kinase (RAF1, Homo sapiens, UniProt P04049); enzyme activity).
For Tyrosine-protein kinase Fer (FER, Homo sapiens, UniProt P16591); enzyme activity: inhibition read 0%.
For Macrophage-stimulating protein receptor (MST1R, Homo sapiens, UniProt Q04912); enzyme activity: inhibition read 18%.

Excerpt of the above (study 2):
Discoidin domain-containing receptor 2 (DDR2, Homo sapiens, UniProt Q16832) — remaining binding: 98%.
Epidermal growth factor receptor (EGFR, Homo sapiens, UniProt P00533, T790M) — remaining binding: 82%.
Ribosomal protein S6 kinase alpha-3, N-terminal kinase domain (RPS6KA3, Homo sapiens, UniProt P51812) — remaining binding: 81%.
The remaining binding was 67% (Dual specificity mitogen-activated protein kinase kinase 5 (MAP2K5, Homo sapiens, UniProt Q13163)).
Inhibitor of nuclear factor kappa-B kinase subunit alpha (CHUK, Homo sapiens, UniProt O15111) — remaining binding: 95%.
The remaining binding was 100% (Cyclin-dependent kinase 18 (CDK18, Homo sapiens, UniProt Q07002)).
